# Assay results of several laboratories.
# Protocols differ between the studies behind these lines. “And” joins repeats or separate records; there may be more than shown. Numbers after ± are the reported error.
Molecule,tested on,test,test system,setting,scale,endpoint,value
NNC(=O)Cn1c2ccccc2c2cn[nH]c(=O)c21,MCF7,"RT-PCR, item: Bax",,"5 µM, 48 h, normalised to β-actin",reference: untreated,fold change,3.39
COC[C@H](NC(C)=O)C(=O)NCc1ccccc1,voltage-gated sodium channel,"peak sodium current, inhibitor, whole-cell patch clamp",CAD,0 mV from -80 mV holding,,IC50,> 500 µM
C=CC=C[C@@H]1CC2=CC(=O)CC[C@]2(C)[C@H]2CC[C@]3(C)[C@@H](O)CC[C@H]3[C@H]12,LNCaP,"cell growth, MTT",,48 h,,IC50,28.8 µM
C[C@H](CCC1=NC(C)(C)CO1)[C@H]1CC[C@H]2[C@@H]3[C@@H](O)C[C@@H]4C[C@H](O)CC[C@]4(C)[C@H]3CC[C@]12C,Clostridioides difficile,"spore germination, OD600",NAP1,"20 min, added: 2000 µM taurocholate",,minimum concentration for complete inhibition,50 µM
CCNC(=O)[C@H]1O[C@@H](n2cnc3c(N)ncnc32)[C@H](O)[C@@H]1O,"HL-1, human A3AR-transfected","protection from cell death, LDH release",,"4 h, pretreatment 1 h, added: H2O2 750 µM",,IC50,3.9 ± 1.8 µM
Cc1ccc(-c2ncn(-c3ccc(Nc4nccc(-c5cccc(N6CCOCC6)c5)n4)cc3)n2)cn1,INS1 cells,"c-jun phosphorylation, inhibitor",,added: streptozotocin,,IC50,~0.2 µM
CNC(C)Cc1ccc2c(c1)OCO2 (racemic),,"Drug Effects Questionnaire, item: Dislike Drug",human,"oral, 1.5 mg/kg, mean over session, unit not given",reference: pre-dose baseline,subjective drug effect rating,15.3
leucinostatin D,MDA-MB-231 resistant,sulforhodamine B,,48 h,,GI50,> 0.1 µM
C#Cc1ccc2c(c1)C(c1ccccn1)=NCc1c(-c3cnco3)ncn1-2,,writhing reduction,"mouse, acetic acid writhing","subcutaneous, added: 0.6% acetic acid i.p.",reference: vehicle,effective dose,5.6 mg/kg and 10 mg/kg
O=C1OC(c2ccc(O)c(S(=O)(=O)O)c2)(c2ccc(O)c(S(=O)(=O)O)c2)c2c(Br)c(Br)c(Br)c(Br)c21,OATP1B1 and OATP1B3,,human sandwich-cultured hepatocytes,"100 µM, 1 h pre-incubation then washout",reference: vehicle,[3H]pitavastatin accumulation,0.48 ± 0.13 fold
N#CCNC(=O)c1cnccc1C(F)(F)F,mAb-19F2 (BALB/c mouse monoclonal antibody),"antibody binding, indirect competitive ELISA",,,,IC50,> 1 µg/mL
CC(N)C12CC3CC(CC(C3)C1)C2 (stereo not shown),influenza A virus,"cytopathic effect, MTS","MDCK, H1N1",,,EC50,> 200 µM
CCC[C@@H](C(=O)c1ccc2c(c1)OCO2)N1CCCC1,anti-α-PVP/MDPV polyclonal antibody (rat),"binding, competitive radioimmunoassay","rat serum, 11 weeks post-immunisation",added: tritium-labelled drug,,IC50,0.0066 ± 0.0023 µM
O=C(N/N=C1\C(=O)Nc2ccc([N+](=O)[O-])cc21)N/N=C1\C(=O)Nc2ccc([N+](=O)[O-])cc21,Influenza A virus H3N2,"viral replication, MTS",MDCK,,,EC50,33 ± 1.7 µM
COc1ccc(Cc2c(C)c(C#N)c3[nH]c4ccccc4n3c2=O)cc1,Vero,cell growth or viability,,,,IC50,> 128 µg/mL
C#Cc1ccc2c(c1)C(c1ccccc1F)=NCc1c(-c3cnco3)ncn1-2,,,"ICR mouse, lactic acid-depressed nesting","dose not given, 60 min nesting period",reference: vehicle,zones cleared,increased
C[C@]12CC[C@H]3[C@@H]([C@H](/C=C/C=C/C=C/[C@@H]4CC5=CC(=O)CC[C@]5(C)[C@H]5CC[C@]6(C)[C@@H](O)CC[C@H]6[C@H]45)CC4=CC(=O)CC[C@@]43C)[C@@H]1CC[C@@H]2O (relative stereo),LNCaP,,,added: testosterone or dihydrotestosterone,,complete growth inhibition,0.25 to 0.5 µM
O=C1/C(=N\NC(=S)NN=Cc2ccccc2)c2ccccc2N1Cc1ccccc1,Influenza A virus H3N2,"viral replication, MTS",MDCK,,,EC50,> 100 µM
c1ccc(CCCN2CCN(CCOC(c3ccccc3)c3ccccc3)CC2)cc1,"Pmat, rat",MPP+ uptake,MDCK expressing rat Pmat,"3 min, pH 7.4, 37 °C, added: 1 µM [3H]MPP+",,IC50,25.2 ± 1.4 µM
Cc1c(Cc2ccc(Cl)c(Cl)c2)c(=O)n2c([nH]c3ccccc32)c1C#N,Vero,cell growth or viability,,,,IC50,4 µg/mL
CC(C)c1ccc2c(c1)CC[C@H]1[C@](C)(CN)CCC[C@]21C,FF2441,"cell growth or viability, MTS",,24 h,,IC50,9.57 µM
O=C(N/N=C1\C(=O)Nc2ccc(Cl)cc21)N/N=C1\C(=O)Nc2ccc(Cl)cc21,Influenza A virus H3N2,"viral replication, visual CPE score",MDCK,,,EC50,> 100 µM
CC1(C)SC2C(NC(=O)C(NC(=O)C3=C(O)C4CCCN4C3=O)c3ccccc3)C(=O)N2C1C(=O)O (stereo not shown),Escherichia coli,broth microdilution,"BW25113, Mueller-Hinton broth","added: 2,2'-bipyridyl 30 µg/mL",,MIC,50 µg/mL
CCC(CC)[C@H](NC(C)=O)[C@@H]1[C@H](O)[C@@H](C(=O)O)C[C@H]1N=C(N)N,influenza virus neuraminidase,"enzyme activity, inhibitor, fluorescence",influenza virus,,,IC50,118 µM
Cc1ccc2c(c1)/C(=N/NC(=O)N/N=C1\C(=O)Nc3ccc(C)cc31)C(=O)N2,influenza A virus,"cytopathic effect, MTS","MDCK, H1N1",,,EC50,> 20 µM
leucinostatin A2,MDA-MB-453,sulforhodamine B,,"48 h, LAR subtype TNBC",,GI50,0.0079 ± 0.0014 µM
CCC(CC)O[C@@H]1C=C(C(=O)O)C[C@H](N)[C@H]1NC(C)=O,Influenza A virus H3N2,"viral replication, MTS",MDCK,,,EC50,5.45 ± 4.05 µM
NC12CC3CC(CC(C3)C1)C2,dendritic cells,flow cytometry,,"10 µg/mL, 24 h",reference: untreated cells,CD80 expression,increased
O=c1[nH]c(=O)c2[nH]c(=O)[nH]c2[nH]1,MftR R89N (Burkholderia thailandensis),,,concentration not given,,melting temperature,55.9 °C and 63 °C
O=C(N/N=C1\C(=O)Nc2ccccc21)N/N=C1\C(=O)Nc2ccccc21,Influenza A virus H3N2,"viral replication, MTS",MDCK,,,EC50,> 100 µM
C[C@H](NC(=O)Cc1cc(F)cc(F)c1)C(=O)N[C@H]1N=C(c2ccccc2)c2ccccc2N(C)C1=O,γ-secretase,"inhibitor, microdialysis","J20 hAPP transgenic mice, 24 months, hippocampal interstitial fluid","intraperitoneal, 3 mg/kg, first 3 h",reference: pre-injection level,ISF Aβ38 reduction,~60%

# For quick reference, copied from above:
Molecule,tested on,test,test system,setting,scale,endpoint,value
O=C1/C(=N\NC(=S)NN=Cc2ccccc2)c2ccccc2N1Cc1ccccc1,Influenza A virus H3N2,"viral replication, MTS",MDCK,,,EC50,> 100 µM
c1ccc(CCCN2CCN(CCOC(c3ccccc3)c3ccccc3)CC2)cc1,"Pmat, rat",MPP+ uptake,MDCK expressing rat Pmat,"3 min, pH 7.4, 37 °C, added: 1 µM [3H]MPP+",,IC50,25.2 ± 1.4 µM
Cc1c(Cc2ccc(Cl)c(Cl)c2)c(=O)n2c([nH]c3ccccc32)c1C#N,Vero,cell growth or viability,,,,IC50,4 µg/mL
